Published values gathered from unrelated publications.
Numbered parts are unrelated; each lists some results of a single study. Substitutions count along the parent as printed.

Series 1
Target: CCND1, cyclin fold, Cln2 fusion (human)
Method: yeast growth competition, sequencing
Medium: yeast
Setting: weak parent motif
Reference: not given
Reading: higher = stronger binding
Starting sequence: CDT1 docking peptide (human); PPARRRLRLSVDE
For `PPARRRLRLAVDE [S10A]`, “normalised enrichment score” read -0.585.
`PPARRRLRFSVDE [L9F]`: “normalised enrichment score” 0.666.
`PPAARRLRLSVDE [R4A]`: “normalised enrichment score” 0.417.
`PPARRRLRLSADE [V11A]` — result for “normalised enrichment score”: -0.0406.
For `APARRRLRLSVDE [P1A]`, “normalised enrichment score” read -0.253.
`PPARRRLRLSVAE [D12A]`: “normalised enrichment score” 0.71.
Under “normalised enrichment score”, `PPARARARLSVDE [R5A L7A]` is recorded as -0.225.
For `PPARRALRLSVDE [R6A]`, “normalised enrichment score” read 0.667.
`PPARKRLRFSVDE [R5K L9F]`: “normalised enrichment score” 0.32.

Series 2
Target: Sal-like protein 4, full length isoform B (SALL4, Homo sapiens, UniProt Q9UJQ4-2, residues 1-616)
Method: universal PBM
Form: double-stranded DNA, one strand shown
Medium: in vitro
Tested at: not given
Setting: 8-mer, flanks averaged, mean of replicates
Reading: higher = stronger binding
`AGGTTCGC` has an E-score of -0.248.
For `CGGTCGGC`, the E-score was -0.306.
The E-score of `GAATGTCC` is reported as 0.0589.
The E-score of `AGCCAGTC` is reported as -0.152.
`AGCGAGTG` has an E-score of -0.124.
`GAGCCAGA` gave an E-score of -0.196.
With `AAGATGCC` the E-score was -0.1.
`GCACGTCC` gave an E-score of -0.18.
With `GAATTCAC` the E-score was -0.0591.
`ACTGCCGC` gave an E-score of -0.307.
With `GACCGGCA` the E-score was -0.31.
With `CATCGGGC` the E-score was -0.292.
`TCGGAAGA` gave an E-score of -0.117.
`AAATAGAA` has an E-score of 0.179.
`ATCTCTTG` has an E-score of -0.116.
`GCCTTATA` gave an E-score of 0.133.
`CGGTATCA` has an E-score of -0.0143.
`ATTGCTCC` has an E-score of -0.103.
`ACGTAAGG` gave an E-score of 0.104.
For `AGGGAGCG`, the E-score was -0.232.
For `TGAACTAA`, the E-score was 0.119.
With `AAAGGACC` the E-score was -0.226.

Series 3
Target: ABI1, truncated, D143A, DHFR fusion (Arabidopsis thaliana)
Method: DHFR PCA, deep sequencing
Medium: yeast
Setting: methotrexate growth selection, single substitutions
Added: (+)-ABA 4.8 µM
Reference: wild-type fitted maximum
Reading: higher = stronger binding
Starting sequence: PYL1, truncated, DHFR fusion (Arabidopsis thaliana); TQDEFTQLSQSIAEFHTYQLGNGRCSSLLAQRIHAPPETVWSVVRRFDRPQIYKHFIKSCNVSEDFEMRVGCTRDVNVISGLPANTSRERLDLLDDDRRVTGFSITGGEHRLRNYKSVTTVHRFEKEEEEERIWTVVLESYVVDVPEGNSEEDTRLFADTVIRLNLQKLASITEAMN; partner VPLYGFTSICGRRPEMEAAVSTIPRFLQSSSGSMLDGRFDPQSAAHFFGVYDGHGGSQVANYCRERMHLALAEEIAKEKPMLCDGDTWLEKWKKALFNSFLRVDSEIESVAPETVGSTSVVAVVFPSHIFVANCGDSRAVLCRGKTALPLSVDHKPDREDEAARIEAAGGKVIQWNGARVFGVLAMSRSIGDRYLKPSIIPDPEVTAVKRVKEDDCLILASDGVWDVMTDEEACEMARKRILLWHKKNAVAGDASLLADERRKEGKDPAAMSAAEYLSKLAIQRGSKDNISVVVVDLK
For `Q7G`, “relative binding score” read 74.3%.
`R32G` — result for “relative binding score”: 23.7%.
For `L8H`, “relative binding score” read 27.7%.
`G21Y`: “relative binding score” 52.1%.
`T120I` — result for “relative binding score”: -3.79%.
`G107E` — result for “relative binding score”: 30.4%.
`L20G`: “relative binding score” 72.6%.
`S26V` — result for “relative binding score”: 30.9%.
`R163W`: “relative binding score” 0.466%.
`V43R`: “relative binding score” -3.43%.
For `S59K`, “relative binding score” read 56.3%.
Under “relative binding score”, `V118H` is recorded as 47.9%.
`Q10N`: “relative binding score” 69.7%.
Under “relative binding score”, `T160P` is recorded as -4.9%.
`R90K` — result for “relative binding score”: 58.5%.
For `R155E`, “relative binding score” read 2.41%.
`L166H` — result for “relative binding score”: 32.8%.

Series 4
Target: RNA binding protein fox-1 homolog 2, RRM domain, GST-SBP tag (RBFOX2, Homo sapiens, UniProt O43251-10, residues 100-194)
Method: RNA Bind-n-Seq
Form: RNA
Medium: in vitro
Tested at: 365 nM
Setting: natural RNA segment, single round, ends assumed
Reference: no-protein control
Reading: higher = stronger binding
Target sequence (chain): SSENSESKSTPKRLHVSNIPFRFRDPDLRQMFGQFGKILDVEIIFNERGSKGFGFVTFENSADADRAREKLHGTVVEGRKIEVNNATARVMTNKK
For `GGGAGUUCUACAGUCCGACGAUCGUACUCACAGAUCCACUGCCCGCCUCUCCUCCCCUCAUGUUCCAGGACUCACCACCGUGGUCAGACCAUGCCCAGUGUGCCCAGGGCAAAGUUGGAUGGGCAGGUGCAGAUGGAAUUCUCGGGUGCCAA`, “RBNS enrichment (R)” read 0.257.
Under “RBNS enrichment (R)”, `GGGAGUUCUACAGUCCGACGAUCCUUCAUUAUUCUCUGCUAUAUAUAAAACGGUGCUGUGAGGGAGGGGAAAAGCAUUUUUCAAUAUAUUGAACUUUUGUACUGAAUUUUUUUGUAAUAAGCAAUCAAGGUUAUGGAAUUCUCGGGUGCCAA` is recorded as 0.637.
`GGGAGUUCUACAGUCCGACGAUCUCCACAAAUGCUGUAUACAGGCUGUACCGCUGCUUCAAACCCCACUUGUCCAGUGCUUCACAGUGUUGCUAAUCAGUGGAGAAAUACAUGCUUUCAUUAUCAAGUGUAGUUGGAAUUCUCGGGUGCCAA` — result for “RBNS enrichment (R)”: 0.432.
For `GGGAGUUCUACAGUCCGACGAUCAAGAUAUUGGGAGAAAACAAACUGUACCACAACAAAUCUUAAGUUUCAAGGCUCUCCUAUAGGGAGAAACAUGGCCAAAAAGACAGGAAGAACUGUGGCUUGUAACUCAAUGGAAUUCUCGGGUGCCAA`, “RBNS enrichment (R)” read 0.31.
`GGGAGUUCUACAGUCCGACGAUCCCCCGCUUUCCCGCCCCUGAACCCCGGCCCCGCGGGCGGCGGGCGGCGCUUCCUGCGCCCCGGGACUCAAUUAAACCCGCCCGGAGACCACGCCGGGCCCAGCGCGUCUGUGGAAUUCUCGGGUGCCAA` — result for “RBNS enrichment (R)”: 0.341.
`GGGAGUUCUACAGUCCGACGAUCCCAGACUGAGUCCUCUCCCCAAAUCAGGGCUCUAGACCCGAGCCCUCCAAACCUGGACUCUGGGACUUAGGCCCCCUUAAAUCUAGACUUCUCUUUAUAGGUUUCAGGUCUGGAAUUCUCGGGUGCCAA`: “RBNS enrichment (R)” 0.284.
Under “RBNS enrichment (R)”, `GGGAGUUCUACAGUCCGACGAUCGGCAGCACCUUGGAGACCAAGCAGCCAUCCCAGCGAAGACUUACCUGCCUGGCCCCACCACCUGGAGUGUUUCAGAGAAUCACUUGGUGGCAGUCACGUGGCUGACUCCUUGGAAUUCUCGGGUGCCAA` is recorded as 0.273.
`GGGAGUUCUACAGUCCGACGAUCAGGCGGGGCCCUCGGGAGCCCAGGUGCAGAGCGAGGCCGUGUCCAGGAGCCGGCGUCCCUCAGUGCCCCGUGCACCCGCGGCCGCGGCCUCCCAGGCAGUGCUCAUGCGCUGGAAUUCUCGGGUGCCAA` — result for “RBNS enrichment (R)”: 0.431.
`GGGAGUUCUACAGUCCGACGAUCUUUUAACUUUCUCCCUCUAUGACACAAAUGAAUUGAGGGUAGGAGGAGGGUGCACAUAACCCUUACCCUACCUCUGCCAAAAAGUGGGGGCUGUACUGGGGACUGCUCGGUGGAAUUCUCGGGUGCCAA` — result for “RBNS enrichment (R)”: 0.606.
Under “RBNS enrichment (R)”, `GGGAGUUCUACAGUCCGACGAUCCUCUACUACUGGAUGAAAUGUCUGCAUUUCCACCAAAAUCUACCCAGUCACCCAGGGAAUAACAACUUAAGCUGUAGUUAGAUAACACCUAGUGAUUAAUUGGCUGAGAAUGGAAUUCUCGGGUGCCAA` is recorded as 0.301.
`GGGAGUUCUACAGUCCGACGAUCACUAACACAGGUCUUCCCUUCCCUCCAACCCCAGGUUUCAGGUCUCAGAGCCAAGCCAGGGUUGGAGAAAACUGCAUUCCUACGAGGGUAAAAGUAGCUGCCCUCUUUGAUGGAAUUCUCGGGUGCCAA` — result for “RBNS enrichment (R)”: 0.504.
Under “RBNS enrichment (R)”, `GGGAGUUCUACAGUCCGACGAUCGGCUGGGGUAGAAACUGGUGUCUGCUCUGGUGUGAUCUGAAAAGGCGUCUUCACUGCUUUAUCUCAUGAUGCUUGCUUGUAAAACUUGAUUUUAGUUUUUCAUUUCUCAAUGGAAUUCUCGGGUGCCAA` is recorded as 0.534.

Series 5
Target: Histone acetyltransferase KAT6A, both winged helices, GST fusion (KAT6A, Homo sapiens, UniProt Q92794, residues 1-181)
Method: protein binding microarray
Form: double-stranded DNA, one strand shown
Medium: in vitro
Tested at: not given
Setting: 8-mer, flanks averaged, mean of 2 arrays, mostly near background
Reference: not given
Reading: higher = stronger binding
Target sequence (chain): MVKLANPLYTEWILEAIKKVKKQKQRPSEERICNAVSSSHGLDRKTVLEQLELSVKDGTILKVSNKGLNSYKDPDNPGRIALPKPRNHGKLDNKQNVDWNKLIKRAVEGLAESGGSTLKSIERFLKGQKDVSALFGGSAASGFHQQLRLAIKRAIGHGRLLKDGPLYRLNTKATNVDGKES
The E-score of `CTTATTAA` is reported as -0.155.
`ACGATAGA` gave an E-score of -0.00934.
With `AGGTTTTC` the E-score was -0.0622.
With `GATCGGTA` the E-score was 0.0886.
`CGTCGCTC` has an E-score of 0.182.
`ACGGCAGA` gave an E-score of 0.219.
The E-score of `GCAGCCCC` is reported as -0.0666.
The E-score of `GCTACCAC` is reported as -0.109.
`CAGCCCCG` has an E-score of 0.127.
`ACTGTGTC` has an E-score of -0.0359.
The E-score of `CAGTTCCG` is reported as 0.193.
With `AGGTAGTA` the E-score was -0.0386.
`ACTTGGTC` gave an E-score of -0.0893.
With `TATCACCA` the E-score was -0.0792.
`TCTCTTAA` gave an E-score of -0.159.
`AGAGGGGC` gave an E-score of -0.212.
With `CCATCTTA` the E-score was -0.0582.
`AGGCCTAA` has an E-score of -0.148.
`CCCCACGG` gave an E-score of 0.189.
With `AGTTTTAT` the E-score was -0.101.
`CGTAAGGC` has an E-score of 0.0716.

Other studies, line by line
With `PhoQ, residues 284 288 289 292 302 303 ASHLAV` the fold induction was 0.823 (PhoP, residues 12 14 15 18 19 NHFRA (Escherichia coli, UniProt P23836); Sort-seq, measured: YFP reporter; E. coli; PhoQ-PhoP variant library, added: 10 µM Mg2+; reference: high Mg2+ state, higher = stronger signaling).

Repeated from above (series 3):
`R163W`: “relative binding score” 0.466%.
`V43R`: “relative binding score” -3.43%.
For `S59K`, “relative binding score” read 56.3%.
Under “relative binding score”, `V118H` is recorded as 47.9%.
`Q10N`: “relative binding score” 69.7%.
Under “relative binding score”, `T160P` is recorded as -4.9%.
